Experimental data collected from several papers.
A part holds a random share of what one study measured.

Study 1
Target: PABPC1L2, full length, GST fusion (mouse, UniProt A0ABA7IW68)
Method: RNAcompete
Form: RNA
Matrix: in vitro
Tested at: 20 nM
Setting: 7-mer, probes averaged, single round
Baseline: mean of 7-mers
Reading: higher = stronger binding
Endpoint: 7-mer Z-score
Construct (chain): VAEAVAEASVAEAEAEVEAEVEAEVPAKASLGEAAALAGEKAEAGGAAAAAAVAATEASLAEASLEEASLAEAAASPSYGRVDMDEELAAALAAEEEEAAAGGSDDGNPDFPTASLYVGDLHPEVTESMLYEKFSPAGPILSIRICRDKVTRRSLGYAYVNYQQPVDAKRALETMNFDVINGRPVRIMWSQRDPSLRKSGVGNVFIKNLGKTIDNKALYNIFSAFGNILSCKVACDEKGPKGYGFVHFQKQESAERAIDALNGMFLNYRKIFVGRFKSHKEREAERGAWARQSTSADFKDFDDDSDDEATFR
UCACCCA: -0.353
AGUCGAG: 0.0152
CACUUAG: -0.151
UCGGUAG: -0.0536
UUAGUAG: -0.0573
CCCUCCU: -0.449
GUAUGAC: -0.17
AGUGCAG: 0.0388
UCUCGUG: -0.38
AAACACG: 2.68
UCUUGUA: -0.423
CAUGCUC: -0.295
UUGCCCU: -0.387
AGCUCCU: -0.296
ACCCACA: -0.302
GCCUACU: -0.318

Study 2
Target: Ras GTPase-activating protein-binding protein 1, full length (G3BP1, Homo sapiens, UniProt Q13283)
Sequence of UniProt Q13283 (whole entry, looked up): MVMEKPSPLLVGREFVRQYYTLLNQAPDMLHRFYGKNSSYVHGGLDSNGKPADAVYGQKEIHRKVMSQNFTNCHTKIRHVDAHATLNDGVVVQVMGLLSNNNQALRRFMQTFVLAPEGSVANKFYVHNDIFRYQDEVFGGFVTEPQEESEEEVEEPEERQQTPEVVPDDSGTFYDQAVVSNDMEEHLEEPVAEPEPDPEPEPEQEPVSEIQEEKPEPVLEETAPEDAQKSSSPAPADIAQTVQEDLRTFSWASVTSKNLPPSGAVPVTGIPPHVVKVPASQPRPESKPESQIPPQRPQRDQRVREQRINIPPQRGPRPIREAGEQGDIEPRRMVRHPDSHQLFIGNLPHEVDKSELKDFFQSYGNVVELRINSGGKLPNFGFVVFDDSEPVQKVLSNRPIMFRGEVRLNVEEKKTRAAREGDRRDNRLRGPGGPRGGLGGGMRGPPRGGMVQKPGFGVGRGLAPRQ
Method: RNA Bind-n-Seq
Form: RNA
Matrix: in vitro
Tested at: 200 nM
Setting: whole 134-nt RNA, ends assumed
With: 150 mM KCl
Baseline: input library
Reading: higher = stronger binding
Endpoint: log2 enrichment
All sequences stand within: GGGAGUUCUACAGUCCGACGAUC … UGGAAUUCUCGGGUGUCAAGG
CUGUGCUACACAUCGUAUGUACCGAAUCGGAAAAAAAGGGAAAAAAAGGGAAAAAAAGGGGAAAGUAUUAUGUUACGCCGUUCGGAUCUG: -0.887
UCAAGUCCUGUGCUACACAUCGUAUGUACCGAAUCGGGAAAGGAAAGGGGAAAGGAAAGUAUUAUGUUACGCCGUUCGGAUCUGCACUUC: -0.75
UGGACAGGUUGCUGGACCCCGCCAACAGAGCCCACCUGGGCCUGGAGGAGCAGCUGAGAGAGCUGCUGGACAUGCUCGACCUCACCUGCG: -0.534
AGUCCUGUGCUACACAUCGUAUGUACCGAAUCGGGUUUGGGUUUUUGGGUUUUUGGGAAAGUAUUAUGUUACGCCGUUCGGAUCUGCACU: -0.21
GCAGGAAGUAAAAACAAAUGGAAAAAAUUCGGAUAGUGGCAGGGGUGGGGGUUGCUAAGGAAAGGGUGGGAUGGGAGUGGGUAAAGAGUU: 0.712
UCAAGUCCUGUGCUACACAUCGUAUGUACCGAAUCGGUUUGGUUUUUGGUUUGGAAAGUAUUAUGUUACGCCGUUCGGAUCUGCACUUCC: -0.932
UAACUUUAGAGGAGGAUAUGAUGGAUAUGGCAGUGGACGUGGAUUUGGGGAUGGCUAUAAUGGGUAUGGAGGAGGACCUGGAGGUGGCAA: 0.484
CAAGUCCUGUGCUACACAUCGUAUGUACCGAAUCGGAAAGGAAAGGAAAAAAAGGAAAGUAUUAUGUUACGCCGUUCGGAUCUGCACUUC: -0.953
GUCCUGUGCUACACAUCGUAUGUACCGAAUCGGAAAAAGGAAAAAGGGGAAAAAGGGGAAAGUAUUAUGUUACGCCGUUCGGAUCUGCAC: -0.305
UCAAGUCCUGUGCUACACAUCGUAUGUACCGAAUCGGGUUUGGGUUUGGUUUGGAAAGUAUUAUGUUACGCCGUUCGGAUCUGCACUUCC: -0.428
CUCAAGUCCUGUGCUACACAUCGUAUGUACCGAAUCGGAAAAAGGUGGUUUGGAAAGUAUUAUGUUACGCCGUUCGGAUCUGCACUUCCA: -0.773
UGGCCCUGGUGGCAUGCGGGGAGGAAGAGGUGGCCUCAUGGAUCGUGGUGGUCCCGGUGGAAUGUUCAGAGGCGGCCGUGGUGGAGACAG: -0.0251
UCAAGUCCUGUGCUACACAUCGUAUGUACCGAAUCGGCCGGGGCCGGGGCCGGGGAAAGUAUUAUGUUACGCCGUUCGGAUCUGCACUUC: -1.03
CACAGACAAUACGCACCCACACAGACACAGAGGGAAGGGGUUGGGAUGGGGACAGGGUGCACAGCAGGGCGGGGUAGGACCCCAGCCCCU: 1.94

Study 3
Target: Sal-like protein 4, full length isoform A (SALL4, Homo sapiens, UniProt Q9UJQ4, residues 1-1053)
Sequence of UniProt Q9UJQ4 (whole entry, looked up): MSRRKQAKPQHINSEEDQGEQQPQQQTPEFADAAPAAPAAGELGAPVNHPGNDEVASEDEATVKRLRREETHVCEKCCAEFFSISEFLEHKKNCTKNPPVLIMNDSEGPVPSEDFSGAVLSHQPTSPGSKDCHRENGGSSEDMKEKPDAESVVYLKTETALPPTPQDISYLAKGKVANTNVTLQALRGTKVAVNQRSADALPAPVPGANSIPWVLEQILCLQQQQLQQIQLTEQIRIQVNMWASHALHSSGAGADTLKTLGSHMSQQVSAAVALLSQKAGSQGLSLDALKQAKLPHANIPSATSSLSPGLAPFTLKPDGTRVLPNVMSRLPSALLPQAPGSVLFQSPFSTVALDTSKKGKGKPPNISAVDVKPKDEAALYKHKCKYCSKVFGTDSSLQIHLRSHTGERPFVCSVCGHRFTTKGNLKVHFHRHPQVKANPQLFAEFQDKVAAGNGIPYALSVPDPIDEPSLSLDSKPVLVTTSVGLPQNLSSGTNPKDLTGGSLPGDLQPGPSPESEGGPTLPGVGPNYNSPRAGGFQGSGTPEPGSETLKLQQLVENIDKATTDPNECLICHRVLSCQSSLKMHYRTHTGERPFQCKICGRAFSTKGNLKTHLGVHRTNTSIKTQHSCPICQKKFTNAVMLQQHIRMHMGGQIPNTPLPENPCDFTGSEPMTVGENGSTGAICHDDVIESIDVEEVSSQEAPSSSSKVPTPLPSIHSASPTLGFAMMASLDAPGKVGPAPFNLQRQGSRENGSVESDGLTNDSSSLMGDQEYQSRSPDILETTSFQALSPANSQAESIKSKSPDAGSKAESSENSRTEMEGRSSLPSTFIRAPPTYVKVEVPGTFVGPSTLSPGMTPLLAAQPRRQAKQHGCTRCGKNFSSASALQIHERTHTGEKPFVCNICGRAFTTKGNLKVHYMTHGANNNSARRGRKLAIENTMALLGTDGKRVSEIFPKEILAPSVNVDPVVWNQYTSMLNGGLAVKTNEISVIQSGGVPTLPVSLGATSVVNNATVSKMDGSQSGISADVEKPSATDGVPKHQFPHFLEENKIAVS
Method: universal PBM
Form: double-stranded DNA, one strand shown
Matrix: in vitro
Tested at: 600 nM
Setting: 8-mer, flanks averaged, mean of replicates
Reading: higher = stronger binding
Endpoint: E-score
ACGACGCT: -0.123
AGGTACGC: -0.21
AAAAGCCG: -0.214
ACCCTGCT: -0.131
CATTCATA: 0.373
AGAGAGTG: -0.102
CTTTAGAC: 0.0805
AAATTAGT: 0.311
ACTCACAA: 0.0679
CCGAGACA: -0.218
GGCATCCA: -0.14
CCAGTCAA: -0.0976
ACCTAAAG: 0.0367
CACTTTCC: -0.00993
CACTACGA: 0.00981
AGTGAAAT: 0.186

Study 4
Target: Prothrombin, mature alpha-thrombin (F2, Homo sapiens, UniProt P00734)
Method: aptamer microarray, sandwich
Form: DNA with 2'F-ANA
Matrix: in vitro
Tested at: 200 nM
Setting: whole 15-mer aptamer, many near background
With: Cy3 exosite-II aptamer, 400 nM
Reading: higher = stronger binding
Endpoint: mean fluorescence intensity
Oligonucleotide: GGTTGGTGTGGTTGG
2'F-ANA at 1 2 4 7 8 9 10 11 12 13 15: 57.6 a.u.
2'F-ANA at 3 5 7 8 9 10 11 12 15: 72.2 a.u.
2'F-ANA at 2 5 8 10 11 13 14: 43.7 a.u.
2'F-ANA at 1 2 3 4 6 7 11 12 13 14: 60.7 a.u.
2'F-ANA at 3 5 7 9 11 14: 54.8 a.u.
2'F-ANA at 1 3 4 8 9 10 12: 82.2 a.u.
2'F-ANA at 3 10 11 13 15: 508 a.u.
2'F-ANA at 1 8 10 13 15: 53.9 a.u.
2'F-ANA at 1 2 9 12 15: 369 a.u.
2'F-ANA at 2 3 10 11 13 14 15: 222 a.u.
2'F-ANA at 2 5 7 8 9 13 14: 49 a.u.
2'F-ANA at 1 5 7 9 11 12 13 14 15: 45.7 a.u.
2'F-ANA at 2 4 6 7 8 11 14 15: 99 a.u.
2'F-ANA at 2 3 7 8 11 13 14 15: 419 a.u.
2'F-ANA at 1 3 6 7 8 11 14: 118 a.u.
2'F-ANA at 2 4 6 7 11 13 14: 76.9 a.u.
2'F-ANA at 2 3 6 7 8 11 13 14 15: 331 a.u.
2'F-ANA at 1 5 6 8 9 11 12 15: 89.1 a.u.
2'F-ANA at 1 5 6 7 8 10 13 14 15: 46.1 a.u.
2'F-ANA at 7 8 12 13 14 15: 293 a.u.
2'F-ANA at 1 2 3 4 5 6 14 15: 46.7 a.u.
2'F-ANA at 1 2 5 7 12 14 15: 43 a.u.
2'F-ANA at 1 2 3 5 7 9 12 13 15: 81.9 a.u.
2'F-ANA at 2 3 4 7 8 11 12 14: 428 a.u.
2'F-ANA at 1 4 5 6 7 11 15: 51 a.u.

Study 5
Target: RNA binding protein fox-1 homolog 2, RRM domain, GST-SBP tag (RBFOX2, Homo sapiens, UniProt O43251-10, residues 100-194)
Method: RNA Bind-n-Seq
Form: RNA
Matrix: in vitro
Tested at: 365 nM
Setting: natural RNA segment, single round, ends assumed
Baseline: no-protein control
Reading: higher = stronger binding
Endpoint: RBNS enrichment (R)
All sequences stand within: GGGAGUUCUACAGUCCGACGAUC … UGGAAUUCUCGGGUGCCAA
Target sequence (chain): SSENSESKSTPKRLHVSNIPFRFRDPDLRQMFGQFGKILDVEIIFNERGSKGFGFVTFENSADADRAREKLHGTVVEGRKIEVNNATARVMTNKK
CUUCUAUUCAAUUGGGAAAAUUUGAACCAAAGCAGAUUUCUUCAGGGCUGAGGGUCUCCAACCGAUGCAUAGAUACAUUGAAAUACUUUAGAUUUCCCACAUGGAUGGUU: 1.27
AGAGUGUGGUUCCUUCUGAUGGGGAGAAAGGGCAAAUUAUUUUAAUAUUUUGUAUUUUCACCUUUAUAAACAUGAAUCCUCAGGGGUGAAGAACUGUUUGCAUAAUUUUC: 0.918
UCAGUUCAGUUUCAGCGGUGCCAACCUCUUUGCGUUUCCUUUUUGUUGAUGAGGACCCAGAGCUGCUGCACACACUCACCUCUAACCCCCUCCCCUCGCUGCUGGGCCCC: 0.648
AGGGUCGGUGGCUGCCUCGCUCCGUCCACCCGUGUGUGUGUCCGGUGGGUCUCCACUGCGGGGCCAGGGCCACGCUCACCCCUCUCGCGGCCCCUCCUCUGCUUCCCCCU: 0.534
GAUCUACUGGCUUUUGCUUAUGAUUAAAAAACCUCAAAUCUAUCUUCUACAUUUUAAAAGGAAGAAAAAAAAGCAAAUAACUGAAUUAUUAUAGAAAACUUUAGACCUGU: 0.566
AUACUCCAUACACUAUACUUCAUACUACAAGCUCCAUCUGUCCUCAGAUAAUUGUCUGACUUUUUUUAGUCUUAAGUAUAGAGGGAAUCCCCUAAAGGCUGAUCCAACUG: 0.33
GUAAUACAGAUUUUCAUAUCAGAGGUGGUUCUAGAGCAAUAGAAGUAUUAAGGUGAAUUUUUUUUAAGUAUUUGGGAUAGGUUUGCAGACACCUACAGUUACUGAAGUCU: 0.439
UUAAUGACCAUUUCCUGGAAUCAGUUUAUUAUACUGAAAACUGGGGGUGGGAGUAGGGAGCUAGUUUGUUGAUAAAUAGUUCCCAUUUCCCCAUGGAGAAUUUGACAUAC: 0.312
UAAAAUUAGAGCAAAUACAUUGGCAAUACAGCUGCUUUUGCUCUGAGCUACAAUCAUGGCUUUUCAUGUUACUUACCAAGUGGUGUUUCUGGUUAGGAAUCACAGCUGUA: 0.285
GUCAGGUCUGUGGCUCUGAGGCCUUCACUUAGAGCUGUCAGUGUGAUUUCCAGGAUGAGUCAGGGUGUGCUGGGCCCUCCAGGAUUUGAGAGAGGGAGAGAAGGCCCUUG: 0.874
CUGAAUUCAGUGAUAUCCCUAUACACUGCCAUUUAGUGGAUAGGUUAUUGUACUUCCAUUCAUACUCUGGGCACUUGUGUUGUAUUGUUCUGUUACAUACUUUUUUUAAC: 0.323
AUAGUUUGUGUAUAUUGACAGAGCUCUUUUAUAACUAAAGCAAAUUUAAUUUUUUUGUACUAGAAAAAAAUUUGAACAUUUUAGUUCUUGGUUAUAAAAAUGUUAAUUCA: 0.932

Excerpt of the above (study 3):
ACCTAAAG: 0.0367
ACTCACAA: 0.0679
GGCATCCA: -0.14
CATTCATA: 0.373
AGGTACGC: -0.21
AAATTAGT: 0.311
AGTGAAAT: 0.186
AAAAGCCG: -0.214
CCAGTCAA: -0.0976
ACGACGCT: -0.123
ACCCTGCT: -0.131
